Results of several laboratories.
Numbered parts are unrelated; each lists some results of a single study. Changes are numbered by the printed parent chain.

Study 1 — target: UBE2E2 UBC core domain (UniProt Q96LR5); method: yeast two-hybrid; matrix: yeast; notes: mostly zero background; relative to: not given; direction: higher = stronger interaction
Chain of UniProt Q96LR5 (whole entry, looked up): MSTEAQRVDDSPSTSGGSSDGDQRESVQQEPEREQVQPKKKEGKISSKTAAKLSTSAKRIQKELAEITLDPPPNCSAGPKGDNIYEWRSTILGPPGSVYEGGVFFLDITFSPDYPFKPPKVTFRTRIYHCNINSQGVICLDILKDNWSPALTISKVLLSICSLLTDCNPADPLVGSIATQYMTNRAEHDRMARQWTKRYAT
B1: ARIH2 RING domain (UniProt O95376); chain HVPTSHPPHHCAVCMQFVRKENLLSLACQHQFCRSCWEQHCSVLVKDGVGVGVSCMAQDCPLRTPEDFVF
B2: MKRN3 RING domain (UniProt Q13064); chain FAVQRGMDKVCGICMEVVYEKANPNDRRFGILSNCNHSFCIRCIRRWRSARQFENRIVKSCPQCRVTSELVIPSE
B3: TRIM41 RING domain (UniProt Q8WV44); chain PVQTLQEEAVCAICLDYFTDPVSIGCGHNFCRVCVTQLWGGEDEEDRDELDREEEEEDGEEE
B4: MARCHF1 RING domain (UniProt Q8TCQ1); chain TAPRSQSRLSVCPSTQDICRICHCEGDEESPLITPCRCTGTLRFVHQSCLHQWIKSSDTRCCELCKYDFIMETKLKPLRKWE
B5: RNF6 RING domain (UniProt Q9Y252); chain NSIDSELGKICSVCISDYVTGNKLRQLPCMHEFHIHCIDRWLSENCTCPICRQPVLGSNIAN
| Molecule | lacZ reporter activity |
| --- | --- |
| LVKDFNPYITCYICKGYLIKPTTVTECLHTFCKTCIVQHFEDSNDCPRCGNQVHETNPLE (PCGF5 RING domain (UniProt Q86SE9)) | 0 |
| ASEEEFQFLRCQQCQAEAKCPKLLPCLHTLCSGCLEASGMQCPICQAPWPLGADTP (PML RING domain (UniProt P29590)) | 0 |
| FAEQPSVKLCCQLCCSVFKDPVITTCGHTFCRRCALKSEKCPVDNVKLTVVVNNI (TRAF7 RING domain (UniProt Q6Q0C0)) | 0 |
| DDVLTKDAGECVICLEELLQGDTIARLPCLCIYHKSCIDSWFEVNRSCPEHPAD (ZNRF1 RING domain (UniProt Q8ND25)) | 0 |
| B1 (ARIH2 RING domain) | 0 |
| ASPKIFQKTKCSICNSALELPSVHFLCGHSFHQHCFESYSESDADCPTCLPENRKVMDMI (VPS11 RING domain (UniProt Q9H270)) | 0 |
| B2 (MKRN3 RING domain) | 0 |
| B3 (TRIM41 RING domain) | 0 |
| B4 (MARCHF1 RING domain) | 0 |
| FDPPLESKYECPICLMALREAVQTPCGHRFCKACIIKSIRDAGHKCPVDNEILLENQLFP (TRAF6 RING domain (UniProt Q9Y4K3)) | 0 |
| B5 (RNF6 RING domain) | 0 |

Study 2 — method: RNA Bind-n-Seq; form: RNA; matrix: in vitro; tested at: 365 nM; relative to: no-protein control; direction: higher = stronger binding
Target: RNA binding protein fox-1 homolog 2, RRM domain, GST-SBP tag (RBFOX2, Homo sapiens, UniProt O43251-10, residues 100-194)
Notes: natural RNA segment, single round, ends assumed
All sequences stand within: GGGAGUUCUACAGUCCGACGAUC … UGGAAUUCUCGGGUGCCAA
Construct (chain): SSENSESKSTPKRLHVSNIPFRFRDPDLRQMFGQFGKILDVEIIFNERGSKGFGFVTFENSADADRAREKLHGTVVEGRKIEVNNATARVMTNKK
| Strand | RBNS enrichment (R) |
| --- | --- |
| CAUAUUCAUAGGGUGUGUAUUUUUUGAGUGUGAGCAUUUAAUUGAAAAUAAGAAAGCUAUGAAGUAAAUGUUAACUUCUCUGUAGCAGCUAAUGCAUAGAGACACUAAAA | 0.598 |
| AUGUAAUUUCACAACACCUAAGGAUUUUUUGGUUGAUCAGGUUACUGUAGAUUUUUACUGAUUGUCCUGGAUGAAUAGACUGUGCUUUUUCUUUUUCUCUCCCUUCCUUC | 1.53 |
| AAGAUUGGGAUUAUCGUCUUCUAAGAGGUUGCUAAUGCCUUUCAUCUUGAAGUUACACAUAACUUCUUACUAGCCAGUAUGGCAAAAGUAGGCAUCUAAAGAAUAUAAAG | 0.298 |
| CAGCUGAGCCUGAGCCAAUGGGACAGUUACACUUGACAGACAAAGAUGGUGGAGAUUGGCAUGCCAUUGAAACUAAGAGCUCUCAAGUCAAGGAAGCUGGGCUGGGCAGU | 0.77 |
| AGCAACGUGGGGGGUGGGGUUGCGAGGGAUGUGUUCACAUGUACCCAUCAUUUGAUCAUAGCACUGUGAUUGCUUUUGAUGUGUGUCUCUAGUGGUGUGCUGUCUGUUGG | 1.83 |
| GUGAGAGUGUGCUCCCCCAAGGGAGGCUUCUCUCCAUCAGGAUGGUACUUUGGGGGAACAAAAUAGUCAGGGAUAUUGGUUCCCCUUUGAGGAGGUGCUGCUGUUUGCUU | 0.706 |
| AAAAGUAAACAAAAUUAAGUUAUUAUUCCACUGUUAGGAAUGGAAAUAAACUUGUGAAGUCUGUUUAUUUUGAAGUAUUGGUGAACUAGGCUUGCUAAUUGAUAACUGCA | 3.1 |
| UGUGGCUUGGUAUUGUGCAGAUUACCUCUUUGAUAGGUCUAGUCACCUUGUUCAGUGCCUGUCUAACAUGGCUAGCUACAAGGCAAUGUUGUCUCCUCCUAAUGUCCACC | 0.264 |

Study 3 — method: protein-binding microarray; form: double-stranded DNA, one strand shown; matrix: in vitro; tested at: 2200 nM top; notes: 60-bp whole probe; added: salmon DNA 0.4 mg/ml; relative to: random background probes; direction: higher = stronger binding; all sequences stand within: GCCTAGCAC … GTCTTGATTCGCTTGACGCTGCTG
Target: Interferon regulatory factor 7, full length, phosphomimetic (IRF7, Homo sapiens, UniProt Q92985, residues 1-503, S471D/S472D/S475D/S476D/S477D/S483D/S484D/S487D)
Chain of UniProt Q92985 (whole entry, unmodified, looked up): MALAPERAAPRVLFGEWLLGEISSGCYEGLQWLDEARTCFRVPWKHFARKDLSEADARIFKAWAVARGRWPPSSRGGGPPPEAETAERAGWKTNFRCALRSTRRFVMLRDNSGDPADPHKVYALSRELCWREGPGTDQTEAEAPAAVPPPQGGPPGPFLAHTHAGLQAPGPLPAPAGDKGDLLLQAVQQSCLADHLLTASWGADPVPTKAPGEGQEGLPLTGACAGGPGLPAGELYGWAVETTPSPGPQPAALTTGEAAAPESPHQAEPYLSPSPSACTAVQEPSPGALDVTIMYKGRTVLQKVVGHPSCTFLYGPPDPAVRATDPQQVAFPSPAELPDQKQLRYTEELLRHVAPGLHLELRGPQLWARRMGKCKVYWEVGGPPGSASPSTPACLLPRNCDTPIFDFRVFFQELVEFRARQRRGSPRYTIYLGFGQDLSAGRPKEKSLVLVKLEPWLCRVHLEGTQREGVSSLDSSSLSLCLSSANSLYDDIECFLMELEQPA
| Strand | fitted relative affinity [z-score] |
| --- | --- |
| GACGGCTCCCTTTTCCTGACGTGCTAG | 1.01 |
| AACGGTATCGACTATCGGGACGTGCTA | -0.0548 |
| TTCGGTTTCGGTTTCGGTTAGTGCTAG | 18.5 |
| CCATTTTTCTAGTCCAGACTGTGCTAG | 2.42 |
| TTGCCAATGCTTCTGGTCTTGTGCTAG | 0.456 |
| TCATCTTTCCACTTGTCACTGTGCTAG | 4.59 |
| TTAGAACTGAGTATGGATTAGTGCTAG | -0.372 |
| TTAGGTTTCGGTTCCGGTTGGTGCTAG | 12.1 |
| TTTGGCTTTCCTTTATGTCCGTGCTAG | 2.7 |
| TTAGGGTTCGGACTGGGTTAGTGCTAG | -0.309 |
| GACGGACTGAGTATCGGGACGTGCTAG | -0.651 |
| TTGAATCTCCCATTATATTTGTGCTAG | 0.986 |
| TCAGACTTTGGTTTGTAACTGTGCTAG | 0.581 |

Study 4 — target: CCND3, cyclin fold, Cln2 fusion (human); method: yeast growth competition, sequencing; matrix: yeast; notes: weak parent motif; relative to: not given; direction: higher = stronger binding
Starting sequence: WEE2 docking peptide (human); KELRQKLNFSYCE
| Change | normalised enrichment score |
| --- | --- |
| N8A | 0.219 |
| E2A | 0.291 |
| K6A | 0.0031 |
| K1A | -0.422 |
| E13A | 0.287 |
| Q5A | 0.0143 |

A few entries again (study 1):
| Molecule | lacZ reporter activity |
| --- | --- |
| LVKDFNPYITCYICKGYLIKPTTVTECLHTFCKTCIVQHFEDSNDCPRCGNQVHETNPLE (PCGF5 RING domain (UniProt Q86SE9)) | 0 |
| ASEEEFQFLRCQQCQAEAKCPKLLPCLHTLCSGCLEASGMQCPICQAPWPLGADTP (PML RING domain (UniProt P29590)) | 0 |
| FAEQPSVKLCCQLCCSVFKDPVITTCGHTFCRRCALKSEKCPVDNVKLTVVVNNI (TRAF7 RING domain (UniProt Q6Q0C0)) | 0 |
| DDVLTKDAGECVICLEELLQGDTIARLPCLCIYHKSCIDSWFEVNRSCPEHPAD (ZNRF1 RING domain (UniProt Q8ND25)) | 0 |
| B1 (ARIH2 RING domain) | 0 |
| ASPKIFQKTKCSICNSALELPSVHFLCGHSFHQHCFESYSESDADCPTCLPENRKVMDMI (VPS11 RING domain (UniProt Q9H270)) | 0 |
